Measurements pooled from the literature.
A part holds a random share of what one study measured. Positions count from the first letter of the parent shown.
Sequence of UniProt Q9NWZ3 (whole entry, looked up): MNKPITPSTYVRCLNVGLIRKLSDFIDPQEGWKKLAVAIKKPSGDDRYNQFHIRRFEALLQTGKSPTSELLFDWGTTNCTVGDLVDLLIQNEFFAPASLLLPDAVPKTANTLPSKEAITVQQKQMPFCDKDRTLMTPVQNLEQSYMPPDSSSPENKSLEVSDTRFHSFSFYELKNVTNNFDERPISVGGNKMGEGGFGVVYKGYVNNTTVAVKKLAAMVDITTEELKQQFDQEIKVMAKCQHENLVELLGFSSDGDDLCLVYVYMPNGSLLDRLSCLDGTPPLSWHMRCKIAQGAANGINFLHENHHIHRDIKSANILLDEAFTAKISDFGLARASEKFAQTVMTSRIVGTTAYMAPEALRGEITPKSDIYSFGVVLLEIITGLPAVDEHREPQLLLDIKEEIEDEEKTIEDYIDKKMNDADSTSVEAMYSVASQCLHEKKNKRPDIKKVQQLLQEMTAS
Sequence of UniProt P41145 (whole entry, looked up): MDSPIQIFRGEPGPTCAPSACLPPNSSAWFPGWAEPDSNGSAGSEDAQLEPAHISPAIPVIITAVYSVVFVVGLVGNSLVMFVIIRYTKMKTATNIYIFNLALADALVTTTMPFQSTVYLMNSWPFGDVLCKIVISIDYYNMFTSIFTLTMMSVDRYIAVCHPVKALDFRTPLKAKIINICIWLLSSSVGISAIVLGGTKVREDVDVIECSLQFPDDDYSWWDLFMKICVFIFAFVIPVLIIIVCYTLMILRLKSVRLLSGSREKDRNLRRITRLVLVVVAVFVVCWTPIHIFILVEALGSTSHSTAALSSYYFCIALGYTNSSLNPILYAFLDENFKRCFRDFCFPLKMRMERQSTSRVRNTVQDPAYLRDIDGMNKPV

Block 1 — target: CCNB1, cyclin fold, Cln2 fusion (human); method: yeast growth competition, sequencing; medium: yeast; setting: weak parent motif; baseline: not given; reading: higher = stronger binding; starting sequence: viral docking peptide; PGASRRLFGSSAD
Under “normalised enrichment score”, `F8L` is recorded as 0.491.
For `R5K F8L`, “normalised enrichment score” read 0.203.
For `R6A`, “normalised enrichment score” read -0.162.
`R5A L7A` — result for “normalised enrichment score”: 0.359.
`P1A`: “normalised enrichment score” 0.523.
`F8A` — result for “normalised enrichment score”: 0.686.
Under “normalised enrichment score”, `S4A` is recorded as 0.578.
For `R5A`, “normalised enrichment score” read -0.114.

Block 2 — target: vanadate, free oxyanion; method: microfluidic competitive inhibition; medium: in vitro, cell-free expressed; tested at: not given; reading: lower = stronger binding
Setting: derived from inhibition constants, unchanged parent 676 nM
Starting sequence: PafA, mature enzyme, eGFP fusion (Elizabethkingia meningoseptica, UniProt Q9KJX5); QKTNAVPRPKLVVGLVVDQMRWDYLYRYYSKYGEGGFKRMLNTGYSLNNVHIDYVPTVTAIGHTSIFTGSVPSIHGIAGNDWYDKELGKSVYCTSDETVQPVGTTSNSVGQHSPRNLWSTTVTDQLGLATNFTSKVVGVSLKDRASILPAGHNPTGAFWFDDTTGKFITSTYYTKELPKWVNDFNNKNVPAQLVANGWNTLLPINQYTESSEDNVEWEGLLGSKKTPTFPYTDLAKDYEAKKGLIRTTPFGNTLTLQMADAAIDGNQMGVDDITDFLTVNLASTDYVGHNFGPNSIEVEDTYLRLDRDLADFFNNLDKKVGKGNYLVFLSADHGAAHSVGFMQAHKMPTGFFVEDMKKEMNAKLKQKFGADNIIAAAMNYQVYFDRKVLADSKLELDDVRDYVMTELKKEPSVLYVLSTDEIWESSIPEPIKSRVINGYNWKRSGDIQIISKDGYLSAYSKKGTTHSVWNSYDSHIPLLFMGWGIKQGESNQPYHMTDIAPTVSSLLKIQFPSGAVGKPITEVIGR
`F352V` — result for “oxyanion analog dissociation constant”: 722 nM.
Under “oxyanion analog dissociation constant”, `G222V` is recorded as 724 nM.
Under “oxyanion analog dissociation constant”, `G292V` is recorded as 3.37 µM.
`K432G` — result for “oxyanion analog dissociation constant”: 759 nM.
For `L507V`, “oxyanion analog dissociation constant” read 698 nM.
For `S70G`, “oxyanion analog dissociation constant” read 558 nM.
Under “oxyanion analog dissociation constant”, `V416G` is recorded as 601 nM.
`S210V` — result for “oxyanion analog dissociation constant”: 654 nM.

Other studies, line by line
The inhibition of `CNC(=O)c1cc(C(=O)N[C@H]2[C@@H]3COC[C@@H]32)cc2c1O[C@@H](CF)[C@@H]2c1ccccc1` is reported as 41.1% (Kappa-type opioid receptor (OPRK1, Homo sapiens, UniProt P41145); binding, radioligand binding; 10 µM).
With `N/C(=N\[N+](=O)[O-])N/N=C\c1ccc(-c2cccc([N+](=O)[O-])c2)o1` the remaining activity was 87.3% (Interleukin-1 receptor-associated kinase 4 (IRAK4, Homo sapiens, UniProt Q9NWZ3); enzyme activity, inhibitor; 0.5 µM; baseline: control).
